Results of several laboratories.
Lines come from different studies, so protocols differ. Positions count from the first letter of the parent shown.
GST-Dig1 213-452: GST-Dig1 213-452 (Saccharomyces cerevisiae)
Homeobox-leucine zipper protein: Homeobox-leucine zipper protein 1-308 (Manihot esculenta, UniProt A0A2C9UVS0)
P1: FUS3 (Saccharomyces cerevisiae); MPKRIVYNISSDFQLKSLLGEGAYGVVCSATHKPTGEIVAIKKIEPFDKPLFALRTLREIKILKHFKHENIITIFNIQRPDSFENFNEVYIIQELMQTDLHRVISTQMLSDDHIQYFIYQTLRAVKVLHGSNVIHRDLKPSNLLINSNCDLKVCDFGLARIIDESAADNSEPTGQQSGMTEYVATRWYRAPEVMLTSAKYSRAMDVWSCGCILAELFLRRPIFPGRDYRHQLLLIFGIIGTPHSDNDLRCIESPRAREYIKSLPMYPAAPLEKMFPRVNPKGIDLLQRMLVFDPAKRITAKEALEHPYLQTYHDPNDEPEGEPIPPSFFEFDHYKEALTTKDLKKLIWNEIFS; partner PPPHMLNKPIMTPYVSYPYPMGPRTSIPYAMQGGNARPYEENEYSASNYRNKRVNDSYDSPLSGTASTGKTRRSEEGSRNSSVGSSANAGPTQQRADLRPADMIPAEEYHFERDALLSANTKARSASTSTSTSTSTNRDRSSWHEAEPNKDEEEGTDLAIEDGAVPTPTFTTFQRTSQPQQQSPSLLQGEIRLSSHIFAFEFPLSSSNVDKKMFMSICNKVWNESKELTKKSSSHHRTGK
P2: COPA (Homo sapiens); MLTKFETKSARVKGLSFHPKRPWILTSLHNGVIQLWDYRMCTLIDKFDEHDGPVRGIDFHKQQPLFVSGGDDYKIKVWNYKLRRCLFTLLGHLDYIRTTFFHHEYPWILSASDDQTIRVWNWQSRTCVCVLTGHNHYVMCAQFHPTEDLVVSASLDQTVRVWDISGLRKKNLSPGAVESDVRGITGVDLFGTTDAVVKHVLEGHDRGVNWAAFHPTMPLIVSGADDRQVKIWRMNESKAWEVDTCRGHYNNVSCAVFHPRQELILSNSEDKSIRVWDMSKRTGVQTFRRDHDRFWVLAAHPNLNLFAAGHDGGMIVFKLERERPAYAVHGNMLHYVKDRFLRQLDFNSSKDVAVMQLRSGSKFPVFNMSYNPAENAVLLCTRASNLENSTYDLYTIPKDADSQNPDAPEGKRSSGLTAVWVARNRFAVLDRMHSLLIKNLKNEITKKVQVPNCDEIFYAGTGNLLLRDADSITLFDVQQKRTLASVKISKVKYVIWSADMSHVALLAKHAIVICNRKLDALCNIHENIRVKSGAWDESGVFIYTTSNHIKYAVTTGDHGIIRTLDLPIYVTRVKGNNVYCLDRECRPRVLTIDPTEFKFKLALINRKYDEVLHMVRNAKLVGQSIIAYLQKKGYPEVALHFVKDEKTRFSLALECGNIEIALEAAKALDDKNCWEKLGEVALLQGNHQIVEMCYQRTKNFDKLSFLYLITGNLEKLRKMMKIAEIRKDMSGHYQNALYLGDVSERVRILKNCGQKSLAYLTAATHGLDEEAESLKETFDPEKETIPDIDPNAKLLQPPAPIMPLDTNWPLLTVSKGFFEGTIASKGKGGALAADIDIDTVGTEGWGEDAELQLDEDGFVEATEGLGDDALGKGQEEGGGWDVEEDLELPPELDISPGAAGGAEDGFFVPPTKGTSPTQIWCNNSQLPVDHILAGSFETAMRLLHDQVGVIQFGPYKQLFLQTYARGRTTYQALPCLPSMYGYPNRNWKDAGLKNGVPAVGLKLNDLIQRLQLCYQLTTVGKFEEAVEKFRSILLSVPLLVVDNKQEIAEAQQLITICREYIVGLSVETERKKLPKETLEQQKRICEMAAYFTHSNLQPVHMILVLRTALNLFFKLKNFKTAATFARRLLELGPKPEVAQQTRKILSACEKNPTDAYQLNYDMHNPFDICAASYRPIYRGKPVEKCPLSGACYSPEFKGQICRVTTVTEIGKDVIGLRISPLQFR
UniProt Q04207, sequence (whole entry, looked up): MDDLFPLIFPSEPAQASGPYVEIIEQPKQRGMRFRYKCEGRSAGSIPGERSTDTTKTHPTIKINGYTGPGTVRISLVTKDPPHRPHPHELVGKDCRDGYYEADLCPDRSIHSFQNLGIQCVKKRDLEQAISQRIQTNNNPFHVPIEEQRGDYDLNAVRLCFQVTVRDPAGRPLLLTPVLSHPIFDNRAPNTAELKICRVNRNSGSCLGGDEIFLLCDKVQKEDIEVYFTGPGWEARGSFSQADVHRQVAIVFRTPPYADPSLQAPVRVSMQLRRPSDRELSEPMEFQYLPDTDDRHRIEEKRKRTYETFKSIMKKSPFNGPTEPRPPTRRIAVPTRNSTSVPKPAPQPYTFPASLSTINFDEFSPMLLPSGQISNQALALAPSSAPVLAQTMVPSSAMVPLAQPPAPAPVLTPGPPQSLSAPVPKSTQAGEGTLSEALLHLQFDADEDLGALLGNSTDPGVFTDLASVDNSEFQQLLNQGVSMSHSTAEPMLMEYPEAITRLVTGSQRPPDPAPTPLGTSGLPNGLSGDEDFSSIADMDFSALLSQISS

Substance = P1 D314A D317A E318A; target or system = GST-Dig1 213-452; assay = GST pull-down; scale = reference: wild type protein, higher = more binding; endpoint = relative binding; value = 125%
Substance = P2 E241K; target or system = SURF4 (Homo sapiens); assay = co-IP, immunoblot; test system = HEK293T; scale = reference: unchanged protein, higher = more SURF4 bound; endpoint = relative binding; value = 0.3
Substance = GAAATATCCCATTATAATAATAATTATTACTATATATTGTATTTATTTAAA (dsDNA); target or system = Homeobox-leucine zipper protein; assay = EMSA; test system = double-stranded DNA, one strand shown; endpoint = binding; value = binds
Substance = P1 D314A D317A; target or system = GST-Dig1 213-452; assay = GST pull-down; scale = reference: wild type protein, higher = more binding; endpoint = relative binding; value = 83%
Substance = TTAGCAAAATTTTTAAGAATATAATTATTAGTCAATCGTCGTGGGACAT (dsDNA); target or system = Homeobox-leucine zipper protein; assay = EMSA; test system = double-stranded DNA, one strand shown; endpoint = binding; value = binds
Substance = CAGACTGGGAAATTCCAGTGTC (dsDNA); target or system = Rela 19-304 (Mus musculus, UniProt Q04207); assay = EMSA; test system = double-stranded DNA, one strand shown; endpoint = Kd; value = 16 nM
